# Results gathered from unrelated publications.
# Every numbered part comes from another study and shows a few of its results, in no order. Positions count from the first letter of the parent shown.

# Sample 1
# Target: RNA binding protein fox-1 homolog 2, RRM domain, GST-SBP tag (RBFOX2, Homo sapiens, UniProt O43251-10, residues 100-194)
# Method: RNA Bind-n-Seq
# Form: RNA
# Matrix: in vitro
# Concentration: 365 nM
# Setting: natural RNA segment, single round, ends assumed
# Baseline: no-protein control
# Reading: higher = stronger binding
# Shared flanks, not repeated: GGGAGUUCUACAGUCCGACGAUC … UGGAAUUCUCGGGUGCCAA
# Target sequence (chain): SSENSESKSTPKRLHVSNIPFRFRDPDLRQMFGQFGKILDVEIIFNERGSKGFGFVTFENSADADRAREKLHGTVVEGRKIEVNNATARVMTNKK
Strand,RBNS enrichment (R)
ACAACAGGUGCUGGAGAGGAUGUGGAGAAAUAGGAACACUUUUACACUGUUGGUGGGACUGUAAACUAGUUCAACCAUUGUGGAAGUAAUCUUUUAAUGAUAUUUUCUUA,0.274
CUGCUUUCCUGGGAAGCCGCAAGUUCAGUCAGUGGGGCACACAGGCUUUGUUUCAGCCUGGAAGUGAGGGCUCUGGAGAUGGAGAUAGGAGCCAUAAGCUCUCCUUCAGA,0.588
GGCUGAGCCUCAGGGCUAAUUGUACUGAGUAAGGACUGCAGCUCCCGGUGACCGCGAGGAGUCGGUGAGGUGGGACUGGUGACUCUCAGAAGCUCCUCGGUGCACUUUUG,0.891
UUACUUCAAUGAAAGCAUGUAACAAGUUUCUCAAACCACCAACAGCCAAGUGGAUUUGGUACAGUGCGGCUGUCUAAUAAAUAAUCAAAAGCAUUUGAUAGAAAUCUGUC,1.81
CUCAGCCAGCCCUCAGAGUGUCCGCUGUGCGCACGGGGGCGGGGCGGGGCGGGCAGCUCCUUGUCUCUCAGCUUUGACUGACUUGUCCGCAUUGGGGAUUUUUGUUCUCA,0.314
UUCCCAUUUCCUGUGGUCCUUUUUUUGUCAUCCCUUGAAGGUGCCCUUGAAAUCCUAAUCUAAGACACUGCUUGAGUCCAAGGCAACCCUCAAUGAGACUAAGACUUGUG,0.907
GAGAGAGGGACUGUCACUUUCCCAGACAGAAACGGCCUUUUCAGGAACCAGCAGCCGCUAGGCCAAUCCCUGGUGGUCGGUCUCCAUCCCGAUUCCUGCCUGCCCGCUUU,0.277
GCUCUGGGAGAUGUUGGGUGUUUUAAGGUUACUGAACCUACAAAGGCCCCUCCUCCCUGACCACCCAUCUUGGCCCGUCAUACCUAGCGCUGUCAUGUCCCCUCCCCGCA,3.88

# Sample 2
# Target: Ras GTPase-activating protein-binding protein 1, full length (G3BP1, Homo sapiens, UniProt Q13283)
# Sequence of UniProt Q13283 (whole entry, looked up): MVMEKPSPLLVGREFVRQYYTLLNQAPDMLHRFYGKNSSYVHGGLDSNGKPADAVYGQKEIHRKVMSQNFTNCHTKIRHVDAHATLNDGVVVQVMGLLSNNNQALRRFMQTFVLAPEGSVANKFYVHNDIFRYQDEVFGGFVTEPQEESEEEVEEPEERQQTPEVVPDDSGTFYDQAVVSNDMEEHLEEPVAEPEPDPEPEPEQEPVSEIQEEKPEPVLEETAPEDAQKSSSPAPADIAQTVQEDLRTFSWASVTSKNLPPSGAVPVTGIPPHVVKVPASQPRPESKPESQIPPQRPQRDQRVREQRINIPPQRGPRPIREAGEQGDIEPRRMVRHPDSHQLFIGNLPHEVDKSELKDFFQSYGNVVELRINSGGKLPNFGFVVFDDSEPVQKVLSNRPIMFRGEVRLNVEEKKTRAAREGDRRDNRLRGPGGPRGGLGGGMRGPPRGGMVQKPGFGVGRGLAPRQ
# Method: RNA Bind-n-Seq
# Form: RNA
# Matrix: in vitro
# Concentration: 200 nM
# Setting: whole 134-nt RNA, ends assumed
# Added: 150 mM KCl
# Baseline: input library
# Reading: higher = stronger binding
# Shared flanks, not repeated: GGGAGUUCUACAGUCCGACGAUC … UGGAAUUCUCGGGUGUCAAGG
Strand,log2 enrichment
UGGGCUGGAUGGCUCAGUUCCCCCAGACCUGGACUGGAAGGGCCAGCCACCUGCACCUCCUAAAAAGGGACUGCUGCAGAGACUCUUCAG,-0.727
CUCAAGUCCUGUGCUACACAUCGUAUGUACCGAAUCGGGCCGGGGCCGGCCGGAAAGUAUUAUGUUACGCCGUUCGGAUCUGCACUUCCA,-0.318
AAGUCCUGUGCUACACAUCGUAUGUACCGAAUCGGGGUUUUGGUUUUGGGUUUUGGAAAGUAUUAUGUUACGCCGUUCGGAUCUGCACUU,-1.02
GCAGGAAGUAAAAACAAAUGGAAAUGCUUCGGAUAGUGGCAGGGGUGGGGGUUGCUAAGGAAAGGGUGGGAUGGGAGUGGGUAAACAGUU,0.803
UGGCCCUGGUGGCAUGAGGGGAGGAAGAGGUGGCCUCAUGGAUCGUGGUGGUCCCGGUGGAAUGUUCAGAGGUGGCCGUGGUGGAGACAG,0.362
UAACUUUAGAGCAGGAUCUGAUGGAUAUGGCAGUGGACGUGGAUUUGGGGAUGGCUAUAAUGGGUAUGGAGGAGGACCUGGAGGUGGCAA,0.514
UAACUUUACAGGAGGAUCUGAUGGAUAUGGCAGUGGACGUGGAUUUGGGGAUGGCUAUAAUGGGUAUGGAGGAGGACCUGGAGGUGGCAA,0.523
GCAUGAAGUAAAAACAAAUGGAAAUGCUUCGGAUAGUGGCAGGGGUGGGGGUUGCUAAGGAAAGGGUGGGAUGGGAGUGGGUAAAGAGUU,1
UGGCCGUGGUGGCAUGCGGGGAGGAAGAGGUGGCCUCAUGGAUCGUGGUGGUCCCGGUGGAAUGUUCAGAGGUGGCCGUGGUGGAGACAG,0.51

# Sample 3
# Target: CCNB2, cyclin fold, Cln2 fusion (human)
# Method: yeast growth competition, sequencing
# Matrix: yeast
# Setting: weak parent motif
# Baseline: not given
# Reading: higher = stronger binding
# Starting sequence: RBL2 docking peptide (human); STTRRRLFVENDS
Variant,normalised enrichment score
STTFRRLFVENDS [R4F],0.593
GTTRRRLFVENDS [S1G],0.171
STTRRRLFVENDG [S13G],0.631
STTRRRLFVLNDS [E10L],0.141
STTRIRLFVENDS [R5I],0.134
STTRRWLFVENDS [R6W],0.248
STTRRRLFVENDC [S13C],0.344
STTRRRLIVENDS [F8I],0.397
STTRRRDFVENDS [L7D],0.336
STTRRRLFVENFS [D12F],0.588
STTRRRLFVENLS [D12L],-0.217
LTTRRRLFVENDS [S1L],0.127
RTTRRRLFVENDS [S1R],1.04
STTRRRWFVENDS [L7W],0.329
STTVRRLFVENDS [R4V],0.412
STTHRRLFVENDS [R4H],0.118
WTTRRRLFVENDS [S1W],0.0192

# Sample 4
# Target: ABI1, truncated, D143A, DHFR fusion (Arabidopsis thaliana)
# Method: DHFR PCA, deep sequencing
# Matrix: yeast
# Setting: methotrexate growth selection, single substitutions
# Added: (+)-ABA 0.39 µM
# Baseline: wild-type fitted maximum
# Reading: higher = stronger binding
# Starting sequence: PYL1, truncated, DHFR fusion (Arabidopsis thaliana); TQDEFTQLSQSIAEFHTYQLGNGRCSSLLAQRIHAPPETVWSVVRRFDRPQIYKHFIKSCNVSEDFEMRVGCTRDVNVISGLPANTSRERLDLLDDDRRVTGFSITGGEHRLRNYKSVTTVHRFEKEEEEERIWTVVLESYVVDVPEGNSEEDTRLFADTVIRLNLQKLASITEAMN
Variant,relative binding score
P50Q,-31.2%
T120W,-12.1%
F124I,66.8%
Q19D,61%
P37S,5.67%
N77K,69.7%
Q51C,0.425%
E127H,56.3%
L138I,-16.6%
A13Y,8.18%
A35M,-4.97%
L20H,54.8%
F56W,11.3%
E109F,-3.57%
R74L,-6.92%
K116Y,5.57%
S63R,36.6%
D65H,29.6%
